Published values collected from several papers.
Numbered parts are unrelated; each lists some results of a single study.

Set 1
Target: Interferon regulatory factor 5, full length, phosphomimetic (IRF5, Homo sapiens, UniProt Q13568-2, residues 1-514, S451D/S453D/S456D/S462D)
Technique: protein-binding microarray
Form: double-stranded DNA, one strand shown
Sample: in vitro
Concentration: 940 nM top
Setting: 60-bp whole probe
Added: salmon DNA 0.4 mg/ml
Baseline: random background probes
Direction: higher = stronger binding
Endpoint: fitted relative affinity
Constant ends, left off below: GCCTAGCAC … GTCTTGATTCGCTTGACGCTGCTG
GACTAACTGGGGTATCGAGACGTGCTA: 1.32 z-score
GACGGTTTCGACAATGGGGACGTGCTA: 6.91 z-score
GACGGTATCGACTATCGTGACGTGCTA: 4.63 z-score
TTAGGTATCGGGACTGGGTTAGTGCTA: 3.92 z-score
TTAGGTATCGGGTTTCGGTTTGTGCTA: 8.12 z-score
CCAAACCTGTGCGCCGTGCCGTGCTAG: -0.307 z-score
TTAGCACTGAGTCTCGATTAGTGCTAG: 2.44 z-score
TTAGGTTCACTTTTCCTTTAGTGCTAG: 0.554 z-score
GACTGTCTCCTACTGCTGACGTGCTAG: 0.386 z-score
GACGGTCTCCTACTGATGACGTGCTAG: -0.175 z-score
GCCGGACTGCTTATCCTGACGTGCTAG: -0.683 z-score
GACGGACTGGGGCTCGGGACGTGCTAG: -0.662 z-score

Set 2
Target: Phosphate system positive regulatory protein PHO4, full length, GST-tagged (PHO4, Saccharomyces cerevisiae, UniProt P07270, residues 1-312)
Technique: competition protein-binding microarray
Form: double-stranded DNA, one strand shown
Sample: in vitro
Concentration: 2 µM
Setting: whole 60-bp probe, lowest competitor level
Added: Cbf1 competitor, 0.05 µM
Direction: higher = stronger binding
Endpoint: fluorescence intensity
Constant ends, left off below: … GTCTTGATTCGCTTGACGCTGCTG
Construct (chain): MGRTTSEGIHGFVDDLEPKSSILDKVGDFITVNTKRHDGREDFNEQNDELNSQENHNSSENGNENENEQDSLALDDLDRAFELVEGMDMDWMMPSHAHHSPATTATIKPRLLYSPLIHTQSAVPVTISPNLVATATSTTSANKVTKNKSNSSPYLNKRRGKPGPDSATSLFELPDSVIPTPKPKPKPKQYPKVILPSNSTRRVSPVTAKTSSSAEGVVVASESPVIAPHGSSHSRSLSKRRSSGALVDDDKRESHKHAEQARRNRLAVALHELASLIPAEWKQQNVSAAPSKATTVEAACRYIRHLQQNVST
GTATAATCTCTGAGGTGCGTGGTGAGGGACTGCTTA: 9450 a.u.
GAGGTTGGTACTATGAACGTGTTCCTGGTTTTCCTG: 9480 a.u.
AAATTACTAAGTTTTCACGTGATCTACCCCGTATGA: 13300 a.u.
AACCATCCCAAACACAAAGCAATCTTTACTCTACTT: 3490 a.u.
ACACTGCTTTGTACCCACGTTTCAAGAAATGGTGTG: 14800 a.u.
ACAACTATAATGGATGACATGATGAATATGTAGTGG: 6040 a.u.
ATTTTTATAATATCCAATAGAGTAGAGTTGTTACAT: 4140 a.u.
AGATCCTCTTGGGATCTTGTGCGACGGGGAGATTGA: 3930 a.u.
TACGTTGCTGTATTCCCCGTGGGACATTCTCCAAGT: 9260 a.u.
CAAAATGGCAACTGGCACGTGAAGCTGTCGATATTG: 17600 a.u.
CTTCTGTAAATTTGTCACACGACTTGACGCGCCCCG: 5470 a.u.
CTTCTGTAAATTTGTCACCGTACTTGACGCGCCCCG: 3330 a.u.

Set 3
Target: Sal-like protein 4, full length isoform A (SALL4, Homo sapiens, UniProt Q9UJQ4, residues 1-1053)
Sequence of UniProt Q9UJQ4 (whole entry, looked up): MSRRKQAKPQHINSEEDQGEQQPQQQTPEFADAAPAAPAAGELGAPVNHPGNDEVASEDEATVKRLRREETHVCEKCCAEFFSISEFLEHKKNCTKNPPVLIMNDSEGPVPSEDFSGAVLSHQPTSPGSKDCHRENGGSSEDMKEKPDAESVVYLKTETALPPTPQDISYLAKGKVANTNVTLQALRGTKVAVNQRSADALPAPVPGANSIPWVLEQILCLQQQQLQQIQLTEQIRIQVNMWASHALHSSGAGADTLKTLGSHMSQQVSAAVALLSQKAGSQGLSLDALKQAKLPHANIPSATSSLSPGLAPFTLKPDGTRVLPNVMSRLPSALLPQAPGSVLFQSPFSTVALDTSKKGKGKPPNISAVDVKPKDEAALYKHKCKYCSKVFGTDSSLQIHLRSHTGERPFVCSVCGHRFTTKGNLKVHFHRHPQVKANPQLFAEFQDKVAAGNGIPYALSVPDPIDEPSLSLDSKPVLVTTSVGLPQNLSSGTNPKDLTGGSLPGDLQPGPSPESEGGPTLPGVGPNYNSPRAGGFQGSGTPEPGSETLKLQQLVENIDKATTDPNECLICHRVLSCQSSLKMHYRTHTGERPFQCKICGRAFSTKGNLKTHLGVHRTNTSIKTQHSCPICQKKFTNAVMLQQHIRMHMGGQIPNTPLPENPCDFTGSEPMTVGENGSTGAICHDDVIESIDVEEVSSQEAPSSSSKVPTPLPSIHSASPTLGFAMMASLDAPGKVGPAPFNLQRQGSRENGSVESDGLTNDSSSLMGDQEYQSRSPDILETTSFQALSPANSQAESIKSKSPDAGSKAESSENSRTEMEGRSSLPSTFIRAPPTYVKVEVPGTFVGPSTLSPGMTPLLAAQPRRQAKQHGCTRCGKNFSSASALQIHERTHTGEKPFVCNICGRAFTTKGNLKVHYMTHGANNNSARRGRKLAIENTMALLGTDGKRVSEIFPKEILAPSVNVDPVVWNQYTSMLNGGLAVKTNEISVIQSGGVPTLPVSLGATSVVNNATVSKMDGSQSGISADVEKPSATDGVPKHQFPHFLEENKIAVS
Technique: universal PBM
Form: double-stranded DNA, one strand shown
Sample: in vitro
Concentration: 600 nM
Setting: 8-mer, flanks averaged, mean of replicates
Direction: higher = stronger binding
Endpoint: E-score
CAAATTAG: 0.212
AGATCTGG: -0.183
CCCACCGG: -0.334
GCAGTGAA: 0.128
AGGGCCTA: -0.227
AAGAATCC: 0.032
CTGCTCGA: -0.241
AATGAGGC: -0.131
AACTTCTG: 0.0556
CCAGACAC: -0.207
AGGGCATG: -0.101
AGATCTCA: 0.0198
CGGAGCAA: 0.00642
ACCAAAAA: 0.277
ATTAGCAC: 0.0924
ATCTATCA: 0.223
CACAGCGG: -0.2

Set 4
Target: RNA binding protein fox-1 homolog 2, RRM domain, GST-SBP tag (RBFOX2, Homo sapiens, UniProt O43251-10, residues 100-194)
Technique: RNA Bind-n-Seq
Form: RNA
Sample: in vitro
Concentration: 365 nM
Setting: natural RNA segment, single round, ends assumed
Baseline: no-protein control
Direction: higher = stronger binding
Endpoint: RBNS enrichment (R)
Constant ends, left off below: GGGAGUUCUACAGUCCGACGAUC … UGGAAUUCUCGGGUGCCAA
Residues (chain): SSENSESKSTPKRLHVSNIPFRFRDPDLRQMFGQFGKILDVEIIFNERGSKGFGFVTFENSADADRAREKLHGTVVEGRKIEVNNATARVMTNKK
UACUCGAAGGGCUGCAUUUCUCUGAGUUUACGAAAUUGUGUCAUUAUGGUCCCCAUACAGUGGUAUUUAACUUUUAAAGCAACUUUUAAGAAAACUCGACUUGUUUUUUG: 0.56
CCUCGACUCUUGAGAGGGAGGCUUUGGUAUCCUUGGGUCUCAGCAUGGACAGUUAUGUAUAUCUACUUGUAUAGAGGGGGACAGUUUUCCACAUCGAUCCUUGCCCUCUU: 1.17
CUCCCCAUCUUCCCUAGAGGCUGCCUGCGCAUCUGGAGCCUGCGCUCCGGCUCAGCGACCUUUCCUCUCAAAUGCGGAAGCGUGCACUUACAGUUCAGACCGUUCUCCUG: 0.343
GAGAUUACAGGCGUGAGCCACCGCACCUGGCCAAUGUUCUUUUAUAUACUCAUGUUUUCUAACAAAACAGCUUUGGAUUUAUAAUGCUGCCAGAUGUCAUUACAAUUUUU: 0.423
UGUCAGCAGGGGGCCUGGUGGGAGGAGCGACUGCCCUGCCCAAAUGAACUGCCACAGCAGGGACAGCUGGACCGCAGAGUUUAUUUUUGUAUUUCUACUGGGCCUGCACA: 0.417
UGAGCUUCUCAGAGUGGAAUGACUCCUUUUCCUUCCUGGCCCUCGGGGGCCUCUCGAGGUCAGCCUCUCCAACCCCUACCUCAGCUCCUGUCUGCACUGAGAAACCUCCC: 0.63
GGGGGGCAGAAAGGAGAUAAUCUCAAUGUGUUCUUUCCUGUAUGCCUUGGCUCUAACUCUGCUGCUCUGGUCUCCCAGAGCCUCUAGGGGCAGGGGAGUGCUCCACAAGG: 0.244
AAAAAUAAAUUGAAAAUUAAAGUCAGAUGAGAAUAGGAAUAAUACUUUGCCACUUCUGCAUUAUUUAGAAACAUACGUUAUUGUACAUUUGUAAACCAUUUACUGUCUGG: 0.445

Set 5
Target: Fragile X messenger ribonucleoprotein 1, C-terminal low-complexity region (Fmr1, Mus musculus, UniProt P35922)
Technique: RNA Bind-n-Seq
Form: RNA
Sample: in vitro
Concentration: 200 nM
Setting: whole 134-nt RNA, ends assumed
Added: 150 mM KCl
Baseline: input library
Direction: higher = stronger binding
Endpoint: log2 enrichment
Constant ends, left off below: GGGAGUUCUACAGUCCGACGAUC … UGGAAUUCUCGGGUGUCAAGG
GCAGGAAGUAAAAACAAAUGGAAAUGCUUCGGAUAGUGGCAGGCGUGGGGGUUGCUAAGGAAAGGGUGGGAUGGGAGUGGGUAAAGAGUU: 0.472
CAAGUCCUGUGCUACACAUCGUAUGUACCGAAUCGGAAAAGGAAAAGGGAAAAGGAAAGUAUUAUGUUACGCCGUUCGGAUCUGCACUUC: -0.682
UGGGAGGUGGAUUUUGUUUAUUUUUUUAGCUCAUUUCCAGGGGUGGGAAUUUUUUUUUAAUAUGUGUCAUGAAUACAGUUGUUUUUGAAA: 0.127
UCAAGUCCUGUGCUACACAUCGUAUGUACCGAAUCGGUUUUUGGUGGAAAAAGGAAAGUAUUAUGUUACGCCGUUCGGAUCUGCACUUCC: -0.39
GUCCUGUGCUACACAUCGUAUGUACCGAAUCGGGUUUUUGGUUUUUGGGGUUUUUGGGAAAGUAUUAUGUUACGCCGUUCGGAUCUGCAC: -0.116
CCAUAGACCCCUUUCUUCUCCCCUUCCCCACGGUAGGAACAUAGCGUGUUUAUAUUUUAUGGCCAAACUAUUUUGAAUUUUGUUGUCCGG: -0.0337
UAACUUUAGAGGAGGAUCUGAUGUAUAUGGCAGUGGACGUGGAUUUGGGGAUGGCUAUAAUGGGUAUGGAGGAGGACCUGGAGGUGGCAA: 0.244
UGGGAGGUGGAUUUUGUUUAUUUUUUUAGCUCAUUUCUAGGGGUGGGAAUUUUUUUUUAAUAUGUGUCAUGAAUAAAGUUGUUUUUGAAA: 0.107
CACAGACAACACGCACCCACACAGACACAGAGGGAAGGGGUUGGGAUGGGGACAGCGUGCACAGCAGGGCGGGGUAGGACCCCAGCCCCU: 1.26

A few entries again (set 3):
AATGAGGC: -0.131
AACTTCTG: 0.0556
CCAGACAC: -0.207
AGGGCATG: -0.101
AGATCTCA: 0.0198
CGGAGCAA: 0.00642
ACCAAAAA: 0.277
ATTAGCAC: 0.0924
